Measured values collected from several papers.
Each numbered part is a random draw from the data of one study; scales do not carry over between parts.
UniProt Q9FGV1, sequence (whole entry, looked up): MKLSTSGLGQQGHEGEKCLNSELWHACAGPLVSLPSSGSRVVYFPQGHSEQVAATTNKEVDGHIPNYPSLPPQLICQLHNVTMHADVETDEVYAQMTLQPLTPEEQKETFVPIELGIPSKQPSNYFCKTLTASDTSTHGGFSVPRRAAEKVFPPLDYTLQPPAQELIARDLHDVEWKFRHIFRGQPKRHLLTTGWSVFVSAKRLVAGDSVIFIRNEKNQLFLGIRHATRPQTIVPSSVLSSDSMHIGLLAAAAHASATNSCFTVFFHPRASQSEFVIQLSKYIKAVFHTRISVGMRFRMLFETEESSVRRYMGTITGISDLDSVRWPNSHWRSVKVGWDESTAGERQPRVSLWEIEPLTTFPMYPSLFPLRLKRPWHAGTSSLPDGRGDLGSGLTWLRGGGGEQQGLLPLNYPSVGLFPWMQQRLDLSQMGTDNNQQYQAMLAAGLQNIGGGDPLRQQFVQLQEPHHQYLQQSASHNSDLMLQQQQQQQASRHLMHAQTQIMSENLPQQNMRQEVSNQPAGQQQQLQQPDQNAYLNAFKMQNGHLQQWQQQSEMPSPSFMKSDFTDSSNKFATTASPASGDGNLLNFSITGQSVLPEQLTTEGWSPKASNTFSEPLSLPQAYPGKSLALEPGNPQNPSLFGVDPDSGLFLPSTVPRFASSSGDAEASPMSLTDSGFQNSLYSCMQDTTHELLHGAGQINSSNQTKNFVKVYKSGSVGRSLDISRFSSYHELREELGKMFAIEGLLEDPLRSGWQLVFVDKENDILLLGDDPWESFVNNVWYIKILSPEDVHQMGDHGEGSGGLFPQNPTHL
UniProt O15294, sequence (whole entry, looked up): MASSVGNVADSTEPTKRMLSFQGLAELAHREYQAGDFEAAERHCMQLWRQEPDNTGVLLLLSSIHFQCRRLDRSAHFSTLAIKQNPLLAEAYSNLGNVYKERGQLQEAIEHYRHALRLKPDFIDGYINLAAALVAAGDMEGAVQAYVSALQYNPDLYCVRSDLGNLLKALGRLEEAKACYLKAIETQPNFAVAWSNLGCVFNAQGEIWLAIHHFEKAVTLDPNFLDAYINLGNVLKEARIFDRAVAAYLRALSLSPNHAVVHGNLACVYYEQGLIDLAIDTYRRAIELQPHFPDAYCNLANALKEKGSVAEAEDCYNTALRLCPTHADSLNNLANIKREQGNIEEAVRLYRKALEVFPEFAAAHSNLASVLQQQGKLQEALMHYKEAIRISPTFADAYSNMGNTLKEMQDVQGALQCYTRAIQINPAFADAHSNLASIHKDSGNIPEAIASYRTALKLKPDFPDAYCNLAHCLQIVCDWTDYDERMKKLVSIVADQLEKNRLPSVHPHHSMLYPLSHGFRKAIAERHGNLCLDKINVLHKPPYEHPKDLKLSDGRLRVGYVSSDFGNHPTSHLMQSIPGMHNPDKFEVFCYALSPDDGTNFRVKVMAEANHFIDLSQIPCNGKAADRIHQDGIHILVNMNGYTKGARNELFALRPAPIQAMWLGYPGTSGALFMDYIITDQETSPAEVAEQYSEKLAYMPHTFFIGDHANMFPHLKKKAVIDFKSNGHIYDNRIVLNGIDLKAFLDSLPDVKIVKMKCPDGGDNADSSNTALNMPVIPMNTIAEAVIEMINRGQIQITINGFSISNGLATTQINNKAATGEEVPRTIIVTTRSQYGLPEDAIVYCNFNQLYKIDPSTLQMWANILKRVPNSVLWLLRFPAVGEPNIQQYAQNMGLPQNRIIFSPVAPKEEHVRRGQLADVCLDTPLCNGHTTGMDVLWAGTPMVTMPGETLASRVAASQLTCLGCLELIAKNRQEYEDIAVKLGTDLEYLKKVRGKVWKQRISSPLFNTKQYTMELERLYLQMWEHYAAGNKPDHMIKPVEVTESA

Sample 1
Target: Interferon regulatory factor 5, full length, phosphomimetic (IRF5, Homo sapiens, UniProt Q13568-2, residues 1-514, S451D/S453D/S456D/S462D)
Method: protein-binding microarray
Molecule type: double-stranded DNA, one strand shown
Medium: in vitro
Tested at: 940 nM top
Setting: 60-bp whole probe
Added: salmon DNA 0.4 mg/ml
Reference: random background probes
Reading: higher = stronger binding
Constant ends, left off below: GCCTAGCAC … GTCTTGATTCGCTTGACGCTGCTG
`GACGATATCAGTATCGAGACGTGCTAG`: “fitted relative affinity” 2.19 z-score.
Under “fitted relative affinity”, `GACGATCTCAGACTGGGGACGTGCTAG` is recorded as -0.294 z-score.
Under “fitted relative affinity”, `TCAATTTTCGTTTTTATACTGTGCTAG` is recorded as 2.14 z-score.
`TTAGGACTGGACTTTCGGTTGGTGCTA` — result for “fitted relative affinity”: 2.18 z-score.
`TTAAATATCGGGTTTCGATTAGTGCTA`: “fitted relative affinity” 5.48 z-score.
`GACGATATCAGTCTCCAGACGTGCTAG`: “fitted relative affinity” 0.0312 z-score.
Under “fitted relative affinity”, `TACGATTTCGGGTATCGAGACGTGCTA` is recorded as 1.93 z-score.
`TCATAATTCTCTTTTCAACTGTGCTAG`: “fitted relative affinity” 1.56 z-score.

Sample 2
Target: Sal-like protein 4, full length isoform A (SALL4, Homo sapiens, UniProt Q9UJQ4, residues 1-1053)
UniProt Q9UJQ4, sequence (whole entry, looked up): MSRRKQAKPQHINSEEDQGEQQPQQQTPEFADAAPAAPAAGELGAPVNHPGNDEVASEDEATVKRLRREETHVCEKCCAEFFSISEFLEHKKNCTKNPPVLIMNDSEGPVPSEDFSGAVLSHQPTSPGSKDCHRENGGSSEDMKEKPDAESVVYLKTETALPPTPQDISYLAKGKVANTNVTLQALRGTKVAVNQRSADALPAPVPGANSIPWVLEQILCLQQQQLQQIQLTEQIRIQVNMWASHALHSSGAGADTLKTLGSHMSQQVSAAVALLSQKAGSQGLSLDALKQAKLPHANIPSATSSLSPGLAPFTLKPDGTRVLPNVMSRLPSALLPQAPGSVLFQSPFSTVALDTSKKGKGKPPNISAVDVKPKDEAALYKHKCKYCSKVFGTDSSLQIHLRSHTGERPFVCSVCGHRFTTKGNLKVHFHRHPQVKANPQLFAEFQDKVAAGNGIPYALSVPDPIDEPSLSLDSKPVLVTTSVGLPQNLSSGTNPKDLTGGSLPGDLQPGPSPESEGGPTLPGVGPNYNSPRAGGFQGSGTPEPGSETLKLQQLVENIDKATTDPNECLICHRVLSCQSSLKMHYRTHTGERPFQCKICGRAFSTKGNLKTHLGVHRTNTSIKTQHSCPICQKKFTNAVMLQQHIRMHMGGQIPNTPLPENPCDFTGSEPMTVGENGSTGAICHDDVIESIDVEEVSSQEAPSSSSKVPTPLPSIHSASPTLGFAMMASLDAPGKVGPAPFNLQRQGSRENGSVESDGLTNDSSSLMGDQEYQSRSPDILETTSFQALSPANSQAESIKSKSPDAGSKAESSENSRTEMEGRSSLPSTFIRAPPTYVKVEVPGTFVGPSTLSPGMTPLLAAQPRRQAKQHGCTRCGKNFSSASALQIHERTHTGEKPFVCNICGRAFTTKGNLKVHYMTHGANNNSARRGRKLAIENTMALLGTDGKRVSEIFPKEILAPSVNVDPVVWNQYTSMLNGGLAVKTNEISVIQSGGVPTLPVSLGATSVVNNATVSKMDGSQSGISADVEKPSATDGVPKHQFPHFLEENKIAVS
Method: universal PBM
Molecule type: double-stranded DNA, one strand shown
Medium: in vitro
Tested at: 600 nM
Setting: 8-mer, flanks averaged, mean of replicates
Reading: higher = stronger binding
With `AAACCACC` the E-score was -0.0324.
`AAGAGGGT` has an E-score of -0.0804.
For `CGTGGACC`, the E-score was -0.365.
`AGCGGATA` gave an E-score of -0.155.
With `GCGGCTCA` the E-score was -0.242.
`CCCTCACA` gave an E-score of -0.0988.
`GGAGATAA` gave an E-score of 0.183.
The E-score of `ACCACCCA` is reported as -0.204.

Further values, each from its own experiment
B1: IAA33 (Arabidopsis thaliana, UniProt Q9FKM7); chain MNSFEPQSQDSLQRRFHQDNSTTQQPRDTTTPFIPKPASKNHNNSNSSSGAAGRSFQGFGLNVEDDLVSSVVPPVTVVLEGRSICQRISLDKHGSYQSLASALRQMFVDGADSTDDLDLSNAIPGHLIAYEDMENDLLLAGDLTWKDFVRVAKRIRILPVKGNTRQVKRNE
Under “enrichment fold change”, `HSLMHKGHKHHVGDI` is recorded as 4.09 (OGT (Homo sapiens, UniProt O15294); binding, phage display NGS; peptide; concentration not given; reference: input library).
`B1 (IAA33)` has a positive tests of 1 (ARF8 699-811 (Arabidopsis thaliana, UniProt Q9FGV1); two-hybrid; reference: out of 2 tests, higher = firmer interaction).

Repeated from above (further values, each from its own experiment):
`B1 (IAA33)` has a positive tests of 1 (ARF8 699-811 (Arabidopsis thaliana, UniProt Q9FGV1); two-hybrid; reference: out of 2 tests, higher = firmer interaction).
Under “enrichment fold change”, `HSLMHKGHKHHVGDI` is recorded as 4.09 (OGT (Homo sapiens, UniProt O15294); binding, phage display NGS; peptide; concentration not given; reference: input library).
